Experimental data from different studies.
Each numbered part is a random draw from the data of one study; scales do not carry over between parts.

Series 1
Target: Protein max, full length (MAX, Homo sapiens, UniProt P61244-2, residues 1-151)
Method: protein-binding microarray
Form: double-stranded DNA, one strand shown
Sample: in vitro
Concentration: not given
Notes: k-mer, scored over probes, only values ≥0.25
Reading: higher = stronger binding
Sequence | E-score
CACGTTGC | 0.464
CACTCATG | 0.267
AGCATGAT | 0.4
ACGTGTTC | 0.461
CATGTGCA | 0.474
ACCACGCC | 0.395
GGCGGGGA | 0.3
GCGTGTTA | 0.398
ACGTGCGG | 0.417
CGTGTCGC | 0.341
CATGTGAA | 0.44
AGTGCGTG | 0.327
ATGTGGTG | 0.316

Series 2
Target: RNA binding protein fox-1 homolog 2, RRM domain, GST-SBP tag (RBFOX2, Homo sapiens, UniProt O43251-10, residues 100-194)
Method: RNA Bind-n-Seq
Form: RNA
Sample: in vitro
Concentration: 365 nM
Notes: natural RNA segment, single round, ends assumed
Relative to: no-protein control
Reading: higher = stronger binding
Shared flanks, not repeated: GGGAGUUCUACAGUCCGACGAUC … UGGAAUUCUCGGGUGCCAA
Residues (chain): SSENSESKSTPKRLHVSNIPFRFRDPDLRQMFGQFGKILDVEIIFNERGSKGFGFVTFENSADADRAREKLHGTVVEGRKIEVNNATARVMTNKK
Sequence | RBNS enrichment (R)
CCUCCCCCAAGCCAACCACUUUCACCUGGGAUGACUUUCGAUUAUGCUUUGUUUUGGGGCUGUAUUUUUGAAAUACUCUACAAGAAAGCUGUGGCUCAACACAUGAGAAG | 0.358
AAUGGCCACCCUGUGUUGUGGGAACUGAGAAGGGCAAUAUAAACCUGAGAGGUUCCUUUGUGUGGUGGGGCCUGAAGAAGAAAGCCCCACGGCUGGACAGCUGUUCUCUC | 0.626
CUUAUCAUCUGCCCUAUCUUGCCCCUUCCUGUGGAGUGGGCAGAAGGGCUCCCGGGAUCCUCAGAGCUCCCAGGUCUGAGCAGCCAAAGGCCCAGCUGGGCCUCCAGGAC | 0.225
UUUCUUUGCAGGAGCUAGCCCAAAGGCAUCAAAUUUAAUAUGAUAAAAUGAAUUGCUAUACCUUAGAAACAAUGUGACUCUAUUAAAAUAGUAUGGGGUAAGUACCCUAC | 0.387
UCUCCUUCCCCGGCUCGCAGGAGAGCAGAGCAGAGAACUGUGGGGAACGCUGUGCUGUUUGUAUUUGUUCCCUUGGGUUUUUUUUUCCUGCCUAAUUUCUGUGAUUUCCA | 0.343
UACCCCAGUUUUACAAAUGGCUAAGCUGAAGCAGAGAUGUUGAAGGAUCCUACCUAAGGGGCACAACUAGUAAGGGAGUAGAGCUGAGAUUGGCUCCAGAGUUCUUGUUU | 0.179
ACCCGCUCGCUCCUAAAGAGAAAGACCCAGGACCCUCCCCCAUCACCCCCAAGAGAGGUUCGCCAUCCUCUGGCCUCGAGCCCUUGGUCCCUCCGUCCGUCUGUCCUCGG | 0.637
UUGAAAACAUUAUACUUGUAUCCAUUUUCCUCUGUUCAACAAAGAGAAAGUUCAAGUUAGCUUCAGUCCUUCAGUGAUAGGCAACCUAGGUUUUCUAGAGUUUAAUUCUU | 0.361
CCAGUGUCCCACGCUCAUUUUCCCUCCAUCCUGCGUUCCGCCUCCCUUGGUACUCAGCCUUUUGGGGACAGCUGGGGCCAGGACUGGGUCACCUAUGAGCUGAAUCAGCC | 0.429
CCGACUCCUCCCUGAGCCAGCCUCCGCUCAGUGUGGCUCCUCAGCCCACAGAGGGGAGGGAGCAUGGGGCCAGGUGCCAGUCAUCUGUGAAGCUAGGGCGCCUACCCCCC | 0.8
AAACAGAAGCUUGUACGUAUUCAUUAGAAUGCACUAUCGGGUACUCUGAAGUCAUUAACAUUGAAAUCUGCACCAGGAGGCAACAGGGGAAAAAAAAGUUUGAUCUUCUU | 0.342
UUCCCUAAAGGAAUUUAUAAGCAGGCAACUUCAUUCCUAUGUAUAAGAUAUUGGGAGAAAACAAACUGUACCACAACAAAUCUUAAGUUUCAAGGCUCUCCUAUAGGGAG | 0.323

Series 3
Target: Ras GTPase-activating protein-binding protein 1, full length (G3BP1, Homo sapiens, UniProt Q13283)
Sequence of UniProt Q13283 (whole entry, looked up): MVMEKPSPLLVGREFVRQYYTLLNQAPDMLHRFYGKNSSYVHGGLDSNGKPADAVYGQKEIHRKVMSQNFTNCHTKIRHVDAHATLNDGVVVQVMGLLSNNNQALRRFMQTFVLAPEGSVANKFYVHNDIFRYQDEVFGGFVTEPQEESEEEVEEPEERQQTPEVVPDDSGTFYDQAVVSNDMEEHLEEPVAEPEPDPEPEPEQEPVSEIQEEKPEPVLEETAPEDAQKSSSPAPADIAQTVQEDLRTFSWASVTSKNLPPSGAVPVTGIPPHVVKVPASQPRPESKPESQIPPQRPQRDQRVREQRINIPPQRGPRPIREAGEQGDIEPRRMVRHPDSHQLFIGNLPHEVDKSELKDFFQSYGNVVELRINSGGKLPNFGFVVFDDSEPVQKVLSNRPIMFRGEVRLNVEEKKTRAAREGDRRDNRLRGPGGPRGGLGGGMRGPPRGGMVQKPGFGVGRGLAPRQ
Method: RNA Bind-n-Seq
Form: RNA
Sample: in vitro
Concentration: 200 nM
Notes: whole 134-nt RNA, ends assumed
Together with: 150 mM KCl
Relative to: input library
Reading: higher = stronger binding
Shared flanks, not repeated: GGGAGUUCUACAGUCCGACGAUC … UGGAAUUCUCGGGUGUCAAGG
Sequence | log2 enrichment
CUCAAGUCCUGUGCUACACAUCGUAUGUACCGAAUCGGAAAAAAAGGUGGAGGAAAGUAUUAUGUUACGCCGUUCGGAUCUGCACUUCCA | -0.397
UGGCCCUGGUGGCAUGCGGGGAGGAAGAGGUGGCCUCAUGGAUCGUGGUGGUCCCGGUGGAAUAUUCAGAGGUGGCCGUGGUGGAGACAG | 0.203
CCUCAAGUCCUGUGCUACACAUCGUAUGUACCGAAUCGGUGGUGGAAAAAGGAAAGUAUUAUGUUACGCCGUUCGGAUCUGCACUUCCAG | -0.0629
GUCCUGUGCUACACAUCGUAUGUACCGAAUCGGGGUUUGGGGAAAAAAAGGGGUGGGGAAAGUAUUAUGUUACGCCGUUCGGAUCUGCAC | 0.499
UCAAGUCCUGUGCUACACAUCGUAUGUACCGAAUCGGUUUGGUUUGGGUUUGGGAAAGUAUUAUGUUACGCCGUUCGGAUCUGCACUUCC | -0.749
AAGUCCUGUGCUACACAUCGUAUGUACCGAAUCGGGGUUUGGGGUUUGGGGUGGGGAAAGUAUUAUGUUACGCCGUUCGGAUCUGCACUU | 0.779
CUGUGCUACACAUCGUAUGUACCGAAUCGGGGUUUUUUUGGGGAAAGGGGAAAAAAAGGGGAAAGUAUUAUGUUACGCCGUUCGGAUCUG | -0.349
UCCUGUGCUACACAUCGUAUGUACCGAAUCGGGAAAAAGGGUUUUUGGGAAAAAAAGGGAAAGUAUUAUGUUACGCCGUUCGGAUCUGCA | -0.546
CCUGUGCUACACAUCGUAUGUACCGAAUCGGGAAAAAAAGGGGAAAAAAAGGAAAAAAAGGAAAGUAUUAUGUUACGCCGUUCGGAUCUG | -0.687
UCCUGUGCUACACAUCGUAUGUACCGAAUCGGUUUUUUGGGUUUUUUGGGGUUUUUUGGGAAAGUAUUAUGUUACGCCGUUCGGAUCUGC | -0.412

Series 4
Target: Histone acetyltransferase KAT6A, winged helix 1, GST fusion (KAT6A, Homo sapiens, UniProt Q92794, residues 1-85)
Method: protein binding microarray
Form: double-stranded DNA, one strand shown
Sample: in vitro
Concentration: not given
Notes: 8-mer, flanks averaged, mean of 2 arrays, mostly near background
Relative to: not given
Reading: higher = stronger binding
Residues (chain): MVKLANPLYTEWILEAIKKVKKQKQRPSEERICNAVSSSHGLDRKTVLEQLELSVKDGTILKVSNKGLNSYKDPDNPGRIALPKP
Sequence | E-score
CATAACGG | 0.179
CGCGACAG | 0.225
AAAAGCCT | -0.198
CCTAAGCC | -0.131
ATGAACCC | 0.0142
CGCAGCAA | 0.0331
ACATATGG | -0.0717
AACGCGCA | 0.299
CAGAATCG | 0.0403
GTCTTTTA | -0.0749
GTAAGTAA | -0.0873
AGCCCTGC | -0.141
AAGGCGGT | 0.136
CATACGGA | 0.169
CAGTCTAA | -0.0211
AAGCCCGC | 0.345
ACCCGCGT | 0.358
TAAGCACA | 0.0855
AGGTCCAG | -0.164
GCCGTCAC | 0.397
TCTGGTCA | -0.311
AACTTTTA | -0.0639

Series 5
Target: RING finger protein unkempt homolog, zinc fingers 1-6, GST-SBP tag (UNK, Homo sapiens, UniProt Q9C0B0, residues 30-357)
Method: RNA Bind-n-Seq
Form: RNA
Sample: in vitro
Concentration: not given
Notes: RNA with constant flanks, human and mouse sites, ends assumed
Relative to: input RNA pool
Reading: higher = stronger binding
Shared flanks, not repeated: GGGAGUUCUACAGUCCGACGAUC … CAACAGAGGAUUGAGCAUCA
Residues (chain): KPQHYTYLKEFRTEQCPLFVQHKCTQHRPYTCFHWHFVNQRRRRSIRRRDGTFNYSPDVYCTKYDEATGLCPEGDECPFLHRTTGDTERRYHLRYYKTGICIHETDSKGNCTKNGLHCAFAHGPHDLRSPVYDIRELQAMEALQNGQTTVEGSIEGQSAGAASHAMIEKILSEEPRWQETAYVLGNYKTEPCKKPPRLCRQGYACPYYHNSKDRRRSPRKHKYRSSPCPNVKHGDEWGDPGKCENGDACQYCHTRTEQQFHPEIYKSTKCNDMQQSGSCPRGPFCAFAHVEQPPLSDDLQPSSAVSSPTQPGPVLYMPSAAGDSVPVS
Sequence | bound/input enrichment [ratio]
GGUUUCAAUGAAACAGAUGAUUUGAAGAGAGCUGAGAGUAUGCUUCAACAAGCAGAUAAAUUAGGUUGCAGACAGUUUGUUACCCCUGCUGAUGUUGUCAGUGGAAACCCCAAACUCAAC | 0.119
AGAGAAAGAGAGCAUGAGAGGGAGCGAGACAGGCGACCAACACAGAGGAGAGAAAACAAAAAUAGCAAAAAAAAAAAAAAAAAGCAGUUCUUUAUAAUUUAAUAUUCUAUUUUAAUAAAG | 2.69
CUGAGAAAUAACCUCCGGAGCAUAGAGUGGGAUCUAGAGGACCUUGAUGAAACCAUCAGCAUAGUUGAAGCAAAUCCUAGAAAAUUUAACCUUGAUGCAACUGAAUUGAGUAUAAGAAAA | 6.71
UUUCUUUCUUUUUUUUUUUUUUUUGAGAAGUCACCUGUUUUCCUUUUACAGGUGACUGAUUAUAGUAUUGGCUUUCAAGAUGUUCCUCAGGCUGGGCGUGGGGGCUCACGCCUUUAAUGC | 8.23
AAGGGAAUGGAGGAAGGAGAAGACAAUUUGCUCUGUAACCUUCGAGAAGUUCAGUGCCUUAUCUGUUGUCUCUUGCACCAAAUGUACAUUGCAGAUCCCAACAUUGCUAAGCUUGUUCAC | 0.099
UACGAGCGGGGUGUCGCAGUCUUGUGCACAGAGUAAACUUUUCUAGCUGCCCCUUUCUGUAAUAGUGAAAGUUGGUAUUUAACAUUUAUUCAUUUUUAAAAUAUUUGGAAGGUCUGAGCU | 15.9
GUCCAGAAGCGCUUUGGCUUCCCUGAAGGCAGCGUAGAGCUUUAUGCAGAGAAAGUGGCCACAAGAGGUCUGUGUGCCAUUGCCCAGGCAGAGUCUCUACGCUACAAACUCCUUGGAGGG | 0.118
GCCCAAGCUUGUCCCUGAACCACUGUGUGCCCAUAUCCUAGAGAAGGGGAGGGAGGGAGAAUAGACAGAAUAUUUAUUACAAAUGCUAGAAAUAUAUUUAUUAUAUUAGGAAUCUCAUUU | 148
GUUUUAAAGAAGGCACUUGAAAUUACAAAAGCAAGUCAUGUGACCCCUCAGCCAGAAGAUAGUUGGAUCCCUUUACUUAUUAAUGCCAUUGAUCAUUGCAUGAAUAGAAUCAAGGAGCUC | 0.176
UCUGUCACUCCUCUUAUCUGAGAAGUGACCUUUUAUUUUUAAGAUGACUACAGACCUAUUUUUAGAUAUGUUUUCAGUACAAUUUUGAACAGCAACUUUUUAAUUAAACAUCUUCCAGUG | 1.87
UUUUACCUGGAUAGGACUCUGUGGCUGGCCAAGUCCACCUCCUCAUCCUUUGCAUCAUUUAUAGUUCAACUUUUCCAAGUGGUUUUAAUGAAGCUCAAUUUUGAAACUUACAAAUUGAAA | 1.21

A few entries again (series 1):
Sequence | E-score
AGTGCGTG | 0.327
CATGTGAA | 0.44
CATGTGCA | 0.474
ATGTGGTG | 0.316
GCGTGTTA | 0.398
ACGTGTTC | 0.461
CACGTTGC | 0.464
AGCATGAT | 0.4
